Measurements of several laboratories.
Each numbered part is a random draw from the data of one study; scales do not carry over between parts. Changes are numbered by the printed parent chain.

Study 1
Target: CCNE2, cyclin fold, Cln2 fusion (human)
Technique: yeast growth competition, sequencing
Medium: yeast
Notes: weak parent motif
Baseline: not given
Reading: higher = stronger binding
Measurement: normalised enrichment score
Parent: SLBP docking peptide (human); ARYKRKLLINDFG; partner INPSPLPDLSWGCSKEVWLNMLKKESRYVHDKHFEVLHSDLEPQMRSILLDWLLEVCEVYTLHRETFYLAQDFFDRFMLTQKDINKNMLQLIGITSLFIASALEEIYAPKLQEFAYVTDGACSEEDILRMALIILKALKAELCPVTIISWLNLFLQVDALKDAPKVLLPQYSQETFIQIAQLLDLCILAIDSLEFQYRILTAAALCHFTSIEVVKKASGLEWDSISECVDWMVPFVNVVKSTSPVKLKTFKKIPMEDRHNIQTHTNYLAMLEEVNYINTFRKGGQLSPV
F12V: 0.304
K6N: 1.59
L8H: 0.239
L7D: 0.394
L7E: 0.204
Y3D: 0.827
K4M: 1.01
Y3T: 0.353
R2P: 0.437
D11S: -0.0807
A1M: 0.975
R2W: 1.01
D11R: 1.22

Study 2
Target: Fragile X messenger ribonucleoprotein 1, C-terminal low-complexity region (Fmr1, Mus musculus, UniProt P35922)
Technique: RNA Bind-n-Seq
Molecule type: RNA
Medium: in vitro
Concentration: 200 nM
Notes: whole 134-nt RNA, ends assumed
Together with: 150 mM KCl
Baseline: input library
Reading: higher = stronger binding
Measurement: log2 enrichment
All sequences stand within: GGGAGUUCUACAGUCCGACGAUC … UGGAAUUCUCGGGUGUCAAGG
AAGUCCUGUGCUACACAUCGUAUGUACCGAAUCGGCCCCGGCCCCGGGGCCCCGGGGAAAGUAUUAUGUUACGCCGUUCGGAUCUGCACU: -0.841
UGGCCCUGGUGGCAUGCGGGGAGGAAGAGGUGGCCUCAUGGAUCGUGGUGGACCCGGUGGAAUGUUCAGAGGUGGCCGUGGUGGAGACAG: 0.23
UCCUGUGCUACACAUCGUAUGUACCGAAUCGGGAAAGGGAAAAAAAGGGUUUUUUUGGGAAAGUAUUAUGUUACGCCGUUCGGAUCUGCA: -0.342
AAGUCCUGUGCUACACAUCGUAUGUACCGAAUCAAAUUUUUAAAUUUAAAUUUAAAAAAGUAUUAUGUUACGCCGUUCGGAUCUGCACUU: -1.34
ACCAUGCAGGUGGGCAUCUUUGGGAAGUGGGGCAAGGGGGGGAUAGGGAGGGGGGUAACACUUUGGGAACAGGUGGGCCCAGGUCGUUUC: 0.664
UGGAGCUGAAGAGCCAAGAGGCUCCGAGUCUGCAGCAGCAGCCAGACCAGUACCUGGAGCCCCAGUCCCACAAGGAGCUUGGAUGUGCGG: -0.501
UCAAGUCCUGUGCUACACAUCGUAUGUACCGAAUCGGGUUUGGUUUGGGUUUGGGAAAGUAUUAUGUUACGCCGUUCGGAUCUGCACUUC: -0.478
GUCCUGUGCUACACAUCGUAUGUACCGAAUCGGGUUUGGGAAAAAGGGUUUUUUUGGGAAAGUAUUAUGUUACGCCGUUCGGAUCUGCAC: 0.0773
UCCUGUGCUACACAUCGUAUGUACCGAAUCAAACCCCCCCAAACCCCCCCAAACCCAAAAAAGUAUUAUGUUACGCCGUUCGGAUCUGCA: 0.243

Study 3
Target: CEBPE, bZIP domain (human)
Technique: DHFR protein complementation
Medium: yeast
Notes: single substitutions, most at no-binding floor
Baseline: wild-type JUN-FOS pair
Reading: higher = stronger binding
Measurement: binding fitness
Parent: JUN, bZIP domain (human); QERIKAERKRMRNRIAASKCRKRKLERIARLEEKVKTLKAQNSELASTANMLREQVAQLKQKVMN; partner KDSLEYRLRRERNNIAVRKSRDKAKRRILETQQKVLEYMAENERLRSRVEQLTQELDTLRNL
S47F: -1.29 natural log
E44Y: -1.34 natural log
A49S: -1.36 natural log
E32I: -1.41 natural log
S43P: -1.51 natural log
A46H: -1.13 natural log
V56A: -1.42 natural log
V35S: -1.37 natural log
M51S: -1.12 natural log
K36F: -1.32 natural log
K36M: -1.07 natural log

Study 4
Target: Sal-like protein 4, full length isoform A (SALL4, Homo sapiens, UniProt Q9UJQ4, residues 1-1053)
Chain of UniProt Q9UJQ4 (whole entry, looked up): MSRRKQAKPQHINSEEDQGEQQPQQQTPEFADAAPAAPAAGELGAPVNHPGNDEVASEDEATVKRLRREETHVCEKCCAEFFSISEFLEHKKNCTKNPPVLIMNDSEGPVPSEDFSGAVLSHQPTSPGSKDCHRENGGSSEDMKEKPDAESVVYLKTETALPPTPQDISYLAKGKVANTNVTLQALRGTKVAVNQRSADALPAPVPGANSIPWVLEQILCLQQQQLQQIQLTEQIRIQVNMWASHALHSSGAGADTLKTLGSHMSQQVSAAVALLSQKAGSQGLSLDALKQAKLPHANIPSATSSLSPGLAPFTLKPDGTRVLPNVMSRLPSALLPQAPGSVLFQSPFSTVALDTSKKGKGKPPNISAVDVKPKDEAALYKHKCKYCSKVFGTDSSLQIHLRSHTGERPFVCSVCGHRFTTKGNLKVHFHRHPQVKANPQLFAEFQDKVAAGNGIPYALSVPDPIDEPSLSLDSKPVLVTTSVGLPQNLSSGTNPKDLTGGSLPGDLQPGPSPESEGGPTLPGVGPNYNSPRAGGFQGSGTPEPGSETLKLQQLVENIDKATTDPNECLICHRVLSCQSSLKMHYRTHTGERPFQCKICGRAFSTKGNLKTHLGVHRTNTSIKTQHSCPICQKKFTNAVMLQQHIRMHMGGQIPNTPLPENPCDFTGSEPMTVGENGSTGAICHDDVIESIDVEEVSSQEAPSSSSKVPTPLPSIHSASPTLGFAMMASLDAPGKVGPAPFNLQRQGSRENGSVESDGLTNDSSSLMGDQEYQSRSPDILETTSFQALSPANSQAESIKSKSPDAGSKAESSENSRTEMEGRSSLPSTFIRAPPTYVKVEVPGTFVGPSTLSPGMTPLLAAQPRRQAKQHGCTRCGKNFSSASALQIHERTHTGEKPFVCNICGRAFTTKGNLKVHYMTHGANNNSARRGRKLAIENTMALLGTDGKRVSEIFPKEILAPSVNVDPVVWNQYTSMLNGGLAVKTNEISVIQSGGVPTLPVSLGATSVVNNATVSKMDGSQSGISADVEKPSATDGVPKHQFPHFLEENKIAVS
Technique: universal PBM
Molecule type: double-stranded DNA, one strand shown
Medium: in vitro
Concentration: 600 nM
Notes: 8-mer, flanks averaged, mean of replicates
Reading: higher = stronger binding
Measurement: E-score
CGGCTGCA: -0.289
ATCGAGGA: 0.0904
CAGATTAC: 0.138
AGCTGATC: -0.0963
CTAAATTA: 0.286
AGTCGTAC: -0.0883
ACTCCAAC: -0.0749
AAATGTCA: 0.134
GTCCCTTA: -0.0293
CACAGCCC: -0.318
CCCAGTTC: -0.161
AACACACT: 0.0215
GCCAGCGA: -0.316
ATGTGATA: 0.265

Study 5
Target: Centromere-binding protein 1, full length, N-terminal tag (CBF1, Saccharomyces cerevisiae, UniProt P17106, residues 1-351)
Chain of UniProt P17106 (whole entry, looked up): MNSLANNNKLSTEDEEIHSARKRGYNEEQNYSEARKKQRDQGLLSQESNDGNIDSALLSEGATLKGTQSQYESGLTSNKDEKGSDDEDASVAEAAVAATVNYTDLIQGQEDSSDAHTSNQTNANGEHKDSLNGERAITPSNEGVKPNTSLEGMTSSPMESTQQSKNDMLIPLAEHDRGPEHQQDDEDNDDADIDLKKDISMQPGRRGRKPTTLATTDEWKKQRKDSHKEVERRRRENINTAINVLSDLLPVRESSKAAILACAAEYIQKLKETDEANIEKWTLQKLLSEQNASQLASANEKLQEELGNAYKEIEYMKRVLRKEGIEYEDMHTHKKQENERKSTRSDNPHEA
Technique: protein-binding microarray
Molecule type: double-stranded DNA, one strand shown
Medium: in vitro
Concentration: 0.8 µM
Notes: whole 60-bp probe, no competitor
Reading: higher = stronger binding
Measurement: fluorescence intensity
All sequences stand within: … GTCTTGATTCGCTTGACGCTGCTG
GAATCGCGTCTTTCGCACGTTGAATCAGAACGATAG: 565 a.u.
CTACTCAAAAAGGGTCACCCGATCGGTGAATCATTC: 650 a.u.
CTATCAGGTGTATATCACGTGCTCAAACCAGCGTTC: 17200 a.u.
CTACATCCTGTATTTCACACGAGAGCAAAACACTTC: 584 a.u.
CTACTTTGATCTGCTGATGTAGCAATGTTTTTTTTC: 644 a.u.
CTATTTCTAGTTTATCACGTCTCATAATCACTGTTC: 693 a.u.
GAATTATTCAAAGGTGGTGTTAATTAAGAATGATAG: 580 a.u.
GAAAACTAGGCATGCCACCAGATTTTGGTGATGTAG: 532 a.u.
GAACTATATATAGGTCATGTGACTACCGAAGAATAG: 17000 a.u.
GAACTACACCTGACTCACATGACAGCATTTCCTTAG: 2050 a.u.
CTATAAAACTCTTCTGATGTCCTTTATGGTTTATTC: 512 a.u.
CTAGCCTTTTACCGTGGTGCGAAGCATATTGAGTTC: 543 a.u.
GAAATCTAGGAAAAGATGGTGACGCCGTTTATCTAG: 482 a.u.
GAAAGCGAATACCGGCTGATGTACAGAAGCGAATAG: 510 a.u.
CTAAATCCCAACAATTACATCAGAACCCACACTTTC: 474 a.u.
GAATTAACTAGACGTCATGCGTATTGATTAACTTAG: 647 a.u.
CTACTATGTCTTGCTCACCTGCAATAGCCCGCGTTC: 539 a.u.
GAAGAAGATATTTGTGACGTACGTGGACCTTTTTAG: 518 a.u.
CTACCCTGAATATTGCATGTGATTCGTAAAGAATTC: 2780 a.u.
GAATAGTTATTGTTGCTCGTGCAGTGATGTGCTTAG: 659 a.u.
CTACTATGGGTGGCGAACGTGGTGGGCGTTACCTTC: 509 a.u.
CTAATTGATCAAGGCCACATGCAAAATAGGGAATTC: 598 a.u.

Study 6
Target: Histone acetyltransferase KAT6A, both winged helices, GST fusion (KAT6A, Homo sapiens, UniProt Q92794, residues 1-181)
Technique: protein binding microarray
Molecule type: double-stranded DNA, one strand shown
Medium: in vitro
Concentration: not given
Notes: 8-mer, flanks averaged, mean of 2 arrays, mostly near background
Baseline: not given
Reading: higher = stronger binding
Measurement: E-score
Target sequence (chain): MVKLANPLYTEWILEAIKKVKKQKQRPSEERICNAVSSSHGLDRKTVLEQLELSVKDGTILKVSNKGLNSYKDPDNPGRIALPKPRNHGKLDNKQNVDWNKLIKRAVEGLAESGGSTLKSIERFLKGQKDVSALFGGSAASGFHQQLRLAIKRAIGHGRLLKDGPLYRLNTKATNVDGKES
CGCGTTTA: 0.226
CGGGGGAC: 0.166
CAGTATGC: 0.0245
AAGGAACA: -0.124
ATCCGTCC: 0.176
GGTTCGAA: 0.0209
TGCGCAAA: 0.166
AATCAGTG: -0.141
ACATATCT: -0.149
TGGCGACA: -0.109
AATGGAGT: -0.234
ACAATTTC: -0.0775
ATCATTCC: -0.0123
CAATTCGA: -0.112
AAGACGAA: -0.139
GTAAACGA: 0.0806

Study 7
Target: Interferon regulatory factor 5, full length, phosphomimetic (IRF5, Homo sapiens, UniProt Q13568-2, residues 1-514, K96S/S451D/S453D/S456D/S462D)
Technique: protein-binding microarray
Molecule type: double-stranded DNA, one strand shown
Medium: in vitro
Concentration: 250 nM
Notes: 60-bp whole probe
Together with: salmon DNA 0.4 mg/ml
Baseline: random background probes
Reading: higher = stronger binding
Measurement: log fluorescence
All sequences stand within: GCCTAGCAC … GTCTTGATTCGCTTGACGCTGCTG
TTAAGTTTCGGTCTCGGTTAGTGCTAG: 10.8 z-score
TGAAAACTAAGTTTATTAGAGTGCTAG: 1.34 z-score
TTCGGACTGGACACTGGGTTAGTGCTA: -0.41 z-score
GTAGGTATCGGACTGGGTTAGTGCTAG: 1.34 z-score
TTAGGTCTCCTTTTCCTTCAGTGCTAG: 0.492 z-score
GACGGTTCCCTTTTCCTGGCGTGCTAG: 0.244 z-score
CACGATTTCGGGTATCGAGACGTGCTA: 4.32 z-score
GAAGATCTCAGTATCGAGACGTGCTAG: 1.97 z-score
GACAATTTCGGGACTGGAGACGTGCTA: 3.99 z-score
GACGTTATCGGGTTTCGGGACGTGCTA: 4.34 z-score
TCAGATATGCCAAATCTGACTGTGCTA: -0.0455 z-score
GACGGACTGCTTATCCTTACGTGCTAG: -0.393 z-score
GACGAACTGAGACTGGAGGCGTGCTAG: -0.368 z-score
GCAAAAATGATTGGTTGAACGTGCTAG: 0.371 z-score
TCAAGTTCATGTTTTGGACTGTGCTAG: 0.0435 z-score

For quick reference, copied from above (study 1):
R2W: 1.01
Y3T: 0.353
L7D: 0.394
K6N: 1.59
R2P: 0.437
